Measurements gathered from unrelated publications.
Each line is one published result; not all experiments were run side by side.

Structure (SMILES) | cell line | test | conditions | IC50
C[C@H]1CN(C2COC2)CCN1c1ccc(Nc2cc(-c3ccnc(N4CCn5c(cc6c5CC(C)(C)C6)C4=O)c3CO)cn(C)c2=O)nc1 | TMD8 wild-type | calcium flux, FLIPR | 2 h preincubation, together with: anti-IgM | 0.0038 µM
CC(=O)c1c(O)c(C)c(O)c2c1OC1=CC(=O)C(C(C)=O)C(=O)C12C (single isomer, unassigned; (+)) | hepatocytes, iPSC-derived, line W3 | cell viability | 48 h | 45 µM
Cc1c(C(=O)O)ccc2c3n(nc12)[C@@H]1[C@H](C3)N(CC2CC2)[C@@]2(C(=O)Nc3cc(Cl)ccc32)[C@H]1c1cccc(Cl)c1F | SNU-719 (MDM2 non-amplified) | cell proliferation, alamarBlue | 120 h | 0.013 µM
CCCCN1C[C@H](O)[C@@H](O)[C@@H](O)[C@H]1CO | sample A patient fibroblasts | Gb3 level lowering, LC-MS/MS, item: Gb3 d18:1/22:0 | 216 h | 16.1 µM
Cc1c(C)c2c(c(C)c1O)CCC(C)(COc1ccc(CC3SC(=O)NC3=O)cc1)O2 (stereo not shown) | hepatocytes, iPSC-derived, line L1 | cell viability, RealTime-Glo MT | 48 h, differentiation day 23 | 10 µM
O=C(Nc1c(Cl)cncc1Cl)c1ccc(OC(F)F)c(OCC2CC2)c1 | PBMC | cytokine release, MSD, item: IL-6 | 24 h, together with: anti-CD3ε/anti-CD28 | 0.023 µM
CC#CC(=O)N1CCC[C@H]1c1nc(-c2ccc(C(=O)Nc3ccccn3)cc2)c2c(N)nccn12 | TMD8 wild-type | calcium flux, FLIPR | 1 h preincubation, together with: anti-IgM | 0.453 µM
O=C(O)COCC(=O)O | hepatocytes, iPSC-derived, line W3 | cell viability, RealTime-Glo MT | 24 h, differentiation day 23 | 13100 µM
C=CC(=O)N1CCC[C@@H](c2ccc(C(N)=O)c3[nH]ccc23)C1 | TMD8 wild-type | calcium flux, FLIPR | 1 h preincubation, together with: anti-IgM | > 1 µM
CCOc1cc([C@@H](CS(C)(=O)=O)N2C(=O)c3cccc(NC(C)=O)c3C2=O)ccc1OC | PBMC | cytokine release, MSD, item: IL-6 | 24 h, together with: anti-CD3ε/anti-CD28 | 0.33 µM

Excerpt of the above:
Structure (SMILES) | cell line | test | conditions | IC50
O=C(Nc1c(Cl)cncc1Cl)c1ccc(OC(F)F)c(OCC2CC2)c1 | PBMC | cytokine release, MSD, item: IL-6 | 24 h, together with: anti-CD3ε/anti-CD28 | 0.023 µM
